# Measured values collected from several papers.
# Protocols differ between the studies behind these lines.
# Target: Voltage-gated inwardly rectifying potassium channel KCNH2 (KCNH2, Homo sapiens, UniProt Q12809)
# Sequence of UniProt Q12809 (whole entry, looked up): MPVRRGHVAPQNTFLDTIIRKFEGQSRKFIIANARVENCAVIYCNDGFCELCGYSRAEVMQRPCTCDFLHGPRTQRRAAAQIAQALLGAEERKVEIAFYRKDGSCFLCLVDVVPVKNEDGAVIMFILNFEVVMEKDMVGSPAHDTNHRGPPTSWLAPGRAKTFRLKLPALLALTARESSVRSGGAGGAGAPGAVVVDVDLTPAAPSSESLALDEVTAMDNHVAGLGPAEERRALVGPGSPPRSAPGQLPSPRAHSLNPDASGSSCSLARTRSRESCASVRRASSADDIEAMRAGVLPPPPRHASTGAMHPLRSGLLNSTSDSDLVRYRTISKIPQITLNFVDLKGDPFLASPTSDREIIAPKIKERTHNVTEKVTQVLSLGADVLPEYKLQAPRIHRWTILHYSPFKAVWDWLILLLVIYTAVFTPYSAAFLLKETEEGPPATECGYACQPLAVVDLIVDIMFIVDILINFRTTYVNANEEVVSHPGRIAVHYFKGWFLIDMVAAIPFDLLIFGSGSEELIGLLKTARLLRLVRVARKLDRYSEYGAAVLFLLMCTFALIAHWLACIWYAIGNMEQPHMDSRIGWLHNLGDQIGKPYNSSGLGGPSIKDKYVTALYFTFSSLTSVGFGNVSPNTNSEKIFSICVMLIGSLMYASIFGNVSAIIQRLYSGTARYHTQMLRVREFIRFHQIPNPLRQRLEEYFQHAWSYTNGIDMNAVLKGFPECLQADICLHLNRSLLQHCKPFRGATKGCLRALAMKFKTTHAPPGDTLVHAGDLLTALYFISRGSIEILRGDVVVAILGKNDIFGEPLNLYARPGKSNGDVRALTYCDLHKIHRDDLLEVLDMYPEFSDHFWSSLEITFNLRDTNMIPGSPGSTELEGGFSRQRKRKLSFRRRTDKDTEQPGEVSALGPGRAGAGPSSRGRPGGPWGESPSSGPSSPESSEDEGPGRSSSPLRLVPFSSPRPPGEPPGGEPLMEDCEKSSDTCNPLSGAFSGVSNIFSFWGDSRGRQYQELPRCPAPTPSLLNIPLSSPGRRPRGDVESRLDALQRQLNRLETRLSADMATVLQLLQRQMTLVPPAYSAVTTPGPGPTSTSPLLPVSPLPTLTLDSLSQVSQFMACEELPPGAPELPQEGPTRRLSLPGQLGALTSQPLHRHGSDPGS
Structure (SMILES),effect on,mode,technique,concentration,endpoint,value
CCO[C@H]1[C@H](O)[C@@H](N)[C@@H](O[C@H]2[C@H](O[C@@H]3O[C@H](CO)[C@@H](O[C@H]4O[C@@H](CN)[C@@H](O)[C@H](O)[C@H]4N)[C@H]3O)[C@@H](O)[C@H](N)C[C@@H]2N)O[C@@H]1CO,ligand displacement,,radioligand,10 µM,binding vs control,-12%
COc1cc2c(cc1-n1ccnc1)C[C@H]1[C@H]3CCCC[C@@]23CCN1C,ligand displacement,,radioligand,1 µM,inhibition,11.9%
CCc1nnc(-c2c(OC)cc(-c3cnc4cc(-c5cnn(C)c5)ccn34)cc2OC)o1,ligand displacement,,radioligand,10 µM,binding vs control,97.1%
CN[C@@H]1[C@H](O)[C@H](NC)[C@H]2O[C@]3(O)[C@H](O[C@@H]2[C@H]1O)O[C@H](C)C[C@H]3NC(=O)Cc1cc(Cl)ccn1,,,,10 µM,inhibition,-2%
Cc1ccc(C2=CC(C)(C)Oc3ccc(-c4ccc(-c5ccc(C(=O)O)cc5)[nH]4)cc32)cc1,hERG current,inhibitor,,30 µM,inhibition,39.5%
C/C(=N\OCCCN1CCCCC1)c1ccc(C(F)(F)F)cc1,ion current,antagonist,automated patch clamp,10 µM,inhibition,76.2%
COc1ccc2c(c1)[C@]13CCCC[C@@H]1[C@H](C2)N(C)CC3,ligand displacement,,radioligand,10 µM,inhibition,23.7%
Cc1cc(Nc2nc(C[C@@]3(C(=O)O)CCN(Cc4cccc(Cl)c4F)[C@H](C)C3)cc(C)c2F)n[nH]1,ion current,,,10 µM,inhibition,23.4%
Cc1ccc(N2CC(N3CCC(C)(O)CC3)C2)cc1C(=O)NC1(c2ccc3c4c(cccc24)C(=O)N3C)CC1,,,,30 µM,inhibition,29.9%
COc1cc2c(cc1NC(=O)c1cncn1C)C[C@H]1[C@H]3CCCC[C@@]23CCN1C,ligand displacement,,radioligand,1 µM,inhibition,3.4%

# For quick reference, copied from above:
Structure (SMILES),effect on,mode,technique,concentration,endpoint,value
COc1cc2c(cc1NC(=O)c1cncn1C)C[C@H]1[C@H]3CCCC[C@@]23CCN1C,ligand displacement,,radioligand,1 µM,inhibition,3.4%
